Assay results gathered from unrelated publications.
Protocols differ between the studies behind these lines. Numbers after ± are the reported error.
T1: itself; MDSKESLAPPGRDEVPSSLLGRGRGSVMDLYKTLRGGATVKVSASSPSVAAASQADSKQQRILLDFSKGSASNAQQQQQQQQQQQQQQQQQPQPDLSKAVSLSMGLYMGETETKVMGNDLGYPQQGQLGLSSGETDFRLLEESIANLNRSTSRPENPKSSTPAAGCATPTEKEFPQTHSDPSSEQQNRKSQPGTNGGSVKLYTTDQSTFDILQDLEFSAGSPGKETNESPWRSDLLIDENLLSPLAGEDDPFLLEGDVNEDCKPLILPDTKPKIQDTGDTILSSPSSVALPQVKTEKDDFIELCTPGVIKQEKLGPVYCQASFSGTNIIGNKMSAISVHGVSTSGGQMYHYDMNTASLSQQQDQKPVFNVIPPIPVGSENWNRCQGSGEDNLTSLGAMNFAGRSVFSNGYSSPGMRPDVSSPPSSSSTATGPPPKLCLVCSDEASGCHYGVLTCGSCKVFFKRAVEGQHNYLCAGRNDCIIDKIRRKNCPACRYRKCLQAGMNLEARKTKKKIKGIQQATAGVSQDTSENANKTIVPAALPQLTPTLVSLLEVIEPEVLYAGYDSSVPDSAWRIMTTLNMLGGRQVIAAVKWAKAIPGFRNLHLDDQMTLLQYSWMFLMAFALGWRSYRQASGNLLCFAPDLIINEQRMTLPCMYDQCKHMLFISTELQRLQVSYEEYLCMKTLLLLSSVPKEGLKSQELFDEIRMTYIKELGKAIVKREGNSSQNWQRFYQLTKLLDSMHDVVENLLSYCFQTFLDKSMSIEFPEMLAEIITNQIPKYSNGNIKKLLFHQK
T2: itself; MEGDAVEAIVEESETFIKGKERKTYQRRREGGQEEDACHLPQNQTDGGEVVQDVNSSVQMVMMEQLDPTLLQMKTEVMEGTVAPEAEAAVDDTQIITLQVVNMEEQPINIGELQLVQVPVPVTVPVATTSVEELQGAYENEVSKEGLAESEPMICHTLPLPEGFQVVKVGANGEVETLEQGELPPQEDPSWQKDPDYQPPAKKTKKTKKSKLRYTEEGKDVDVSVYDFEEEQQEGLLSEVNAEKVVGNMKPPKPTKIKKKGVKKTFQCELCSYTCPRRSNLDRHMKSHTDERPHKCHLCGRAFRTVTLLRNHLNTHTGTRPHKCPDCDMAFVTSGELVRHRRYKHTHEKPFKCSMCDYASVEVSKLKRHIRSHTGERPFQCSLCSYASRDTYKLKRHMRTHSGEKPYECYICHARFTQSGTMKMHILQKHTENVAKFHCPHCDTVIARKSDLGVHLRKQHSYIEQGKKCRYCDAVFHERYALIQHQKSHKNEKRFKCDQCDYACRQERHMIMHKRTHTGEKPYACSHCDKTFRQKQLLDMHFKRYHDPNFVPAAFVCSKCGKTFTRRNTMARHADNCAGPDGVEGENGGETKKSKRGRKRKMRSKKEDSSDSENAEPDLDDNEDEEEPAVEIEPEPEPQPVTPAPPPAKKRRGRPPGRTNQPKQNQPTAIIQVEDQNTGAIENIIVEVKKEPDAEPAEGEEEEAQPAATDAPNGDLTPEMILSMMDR
T3: itself; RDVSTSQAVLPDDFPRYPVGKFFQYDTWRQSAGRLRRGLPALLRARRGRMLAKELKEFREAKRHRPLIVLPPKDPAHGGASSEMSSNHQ
T4: itself; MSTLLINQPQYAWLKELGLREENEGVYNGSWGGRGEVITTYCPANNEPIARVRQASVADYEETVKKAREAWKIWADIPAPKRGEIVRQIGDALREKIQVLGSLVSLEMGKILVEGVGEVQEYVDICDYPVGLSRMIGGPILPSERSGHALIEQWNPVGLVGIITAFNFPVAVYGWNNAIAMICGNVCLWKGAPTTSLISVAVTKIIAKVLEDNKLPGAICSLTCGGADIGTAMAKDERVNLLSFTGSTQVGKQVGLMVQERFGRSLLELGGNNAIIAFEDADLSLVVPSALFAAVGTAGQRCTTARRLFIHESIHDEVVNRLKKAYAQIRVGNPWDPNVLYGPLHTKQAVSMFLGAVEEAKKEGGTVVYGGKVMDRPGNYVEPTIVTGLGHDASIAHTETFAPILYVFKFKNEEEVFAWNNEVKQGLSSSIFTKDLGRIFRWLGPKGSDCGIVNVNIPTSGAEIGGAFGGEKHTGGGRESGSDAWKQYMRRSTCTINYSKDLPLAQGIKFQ
B1: FUS 2-110 (Homo sapiens, UniProt P35637); sequence looked up; chain ASNDYTQQATQSYGAYPTQPGQGYSQQSSQPYGQQSYSGYSQSTDTSGYGQSSYSSYGQSQNTGYGTQSTPQGYGSTGGYGSSQSSQSSYGQQSSYPGYGQQPAPSSTS
B2: Nr3c1 (Mus musculus, UniProt P06537); chain MDSKESLAPPGRDEVPSSLLGRGRGSVMDLYKTLRGGATVKVSASSPSVAAASQADSKQQRILLDFSKGSASNAQQQQQQQQQQQQQQQQQPQPDLSKAVSLSMGLYMGETETKVMGNDLGYPQQGQLGLSSGETDFRLLEESIANLNRSTSRPENPKSSTPAAGCATPTEKEFPQTHSDPSSEQQNRKSQPGTNGGSVKLYTTDQSTFDILQDLEFSAGSPGKETNESPWRSDLLIDENLLSPLAGEDDPFLLEGDVNEDCKPLILPDTKPKIQDTGDTILSSPSSVALPQVKTEKDDFIELCTPGVIKQEKLGPVYCQASFSGTNIIGNKMSAISVHGVSTSGGQMYHYDMNTASLSQQQDQKPVFNVIPPIPVGSENWNRCQGSGEDNLTSLGAMNFAGRSVFSNGYSSPGMRPDVSSPPSSSSTATGPPPKLCLVCSDEASGCHYGVLTCGSCKVFFKRAVEGQHNYLCAGRNDCIIDKIRRKNCPACRYRKCLQAGMNLEARKTKKKIKGIQQATAGVSQDTSENANKTIVPAALPQLTPTLVSLLEVIEPEVLYAGYDSSVPDSAWRIMTTLNMLGGRQVIAAVKWAKAIPGFRNLHLDDQMTLLQYSWMFLMAFALGWRSYRQASGNLLCFAPDLIINEQRMTLPCMYDQCKHMLFISTELQRLQVSYEEYLCMKTLLLLSSVPKEGLKSQELFDEIRMTYIKELGKAIVKREGNSSQNWQRFYQLTKLLDSMHDVVENLLSYCFQTFLDKSMSIEFPEMLAEIITNQIPKYSNGNIKKLLFHQK
B3: Igf2 E-peptide E-peptide region (Mus musculus); chain RDVSTSQAVLPDDFPRYPVGKFFQYDTWRQSAGRLRRGLPALLRARRGRMLAKELKEFREAKRHRPLIVLPPKDPAHGGASSEMSSNHQ
B4: ALDH7A1 A129P (Homo sapiens); chain MSTLLINQPQYAWLKELGLREENEGVYNGSWGGRGEVITTYCPANNEPIARVRQASVADYEETVKKAREAWKIWADIPAPKRGEIVRQIGDALREKIQVLGSLVSLEMGKILVEGVGEVQEYVDICDYPVGLSRMIGGPILPSERSGHALIEQWNPVGLVGIITAFNFPVAVYGWNNAIAMICGNVCLWKGAPTTSLISVAVTKIIAKVLEDNKLPGAICSLTCGGADIGTAMAKDERVNLLSFTGSTQVGKQVGLMVQERFGRSLLELGGNNAIIAFEDADLSLVVPSALFAAVGTAGQRCTTARRLFIHESIHDEVVNRLKKAYAQIRVGNPWDPNVLYGPLHTKQAVSMFLGAVEEAKKEGGTVVYGGKVMDRPGNYVEPTIVTGLGHDASIAHTETFAPILYVFKFKNEEEVFAWNNEVKQGLSSSIFTKDLGRIFRWLGPKGSDCGIVNVNIPTSGAEIGGAFGGEKHTGGGRESGSDAWKQYMRRSTCTINYSKDLPLAQGIKFQ
Chain of UniProt P03023 (whole entry, looked up): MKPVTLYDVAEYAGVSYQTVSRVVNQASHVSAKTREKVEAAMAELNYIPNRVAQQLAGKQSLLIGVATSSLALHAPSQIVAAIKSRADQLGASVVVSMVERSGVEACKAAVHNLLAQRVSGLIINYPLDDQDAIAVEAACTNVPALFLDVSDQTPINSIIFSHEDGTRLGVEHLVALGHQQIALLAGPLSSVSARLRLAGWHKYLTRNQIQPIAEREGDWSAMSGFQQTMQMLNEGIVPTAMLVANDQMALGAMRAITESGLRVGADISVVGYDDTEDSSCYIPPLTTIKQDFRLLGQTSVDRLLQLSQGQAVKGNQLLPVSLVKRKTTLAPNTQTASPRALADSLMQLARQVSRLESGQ
Chain of UniProt Q8MIP0 (whole entry, looked up): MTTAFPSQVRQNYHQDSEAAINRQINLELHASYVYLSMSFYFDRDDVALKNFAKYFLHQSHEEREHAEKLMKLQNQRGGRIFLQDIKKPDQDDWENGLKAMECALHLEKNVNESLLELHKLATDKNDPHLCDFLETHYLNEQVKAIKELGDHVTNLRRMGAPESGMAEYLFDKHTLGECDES
Chain of UniProt O95999 (whole entry, looked up): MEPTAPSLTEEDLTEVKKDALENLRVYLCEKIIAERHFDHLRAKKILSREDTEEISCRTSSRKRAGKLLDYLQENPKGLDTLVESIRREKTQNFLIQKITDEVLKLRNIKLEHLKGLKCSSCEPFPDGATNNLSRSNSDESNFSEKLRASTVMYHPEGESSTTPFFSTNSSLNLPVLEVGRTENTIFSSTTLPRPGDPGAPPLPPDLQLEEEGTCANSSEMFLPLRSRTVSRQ

| Substance | partner | assay | system | setting | how to read | quantity | value |
| --- | --- | --- | --- | --- | --- | --- | --- |
| B1 (FUS 2-110) | itself | hydrogel binding assay |  |  |  | binding | binds |
| ALDH12 fragment (Zea mays) (sequence not shown) | itself | AUC |  | sedimentation equilibrium, dimer-tetramer model |  | Ka | 910000 M⁻¹ |
| A1cf fragment (Rattus norvegicus) | itself | AUC |  |  |  | percent dimer | 5% |
| BCL10, Alexa488 label (Homo sapiens, UniProt O95999) | itself | confocal fluorescence microscopy |  | wild type, full length |  | critical concentration of polymerization | 0.5 µmol/L |
| HLA-DRA/HLA-DRB1 heterodimer, on cells (Homo sapiens) | itself | single-particle fluorescence imaging |  | 37 °C |  | fraction of 2-particle spots | 15 ± 5% |
| ClpX fragment T66C/P388C, Cys66-Cys388 disulfide (Escherichia coli) | itself | GFP-ssrA degradation |  | reduced with dithiothreitol, together with: ClpP | baseline: oxidized enzyme, higher = larger KM | KM increase | 20 fold |
| B2 (Nr3c1) | T1, itself | number and brightness microscopy | 3134-GR KO | at array, in cells, together with: Cort 100 nM | baseline: monomeric control, higher = more oligomerised | molecular brightness | 3.15 fold |
| protein (UniProt O87963) | itself | tethered particle motion |  | two-site DNA, dimers to tetramer |  | loop formation rate constant | 0.15 s⁻¹ |
| TPDYLMQLMNDKKLMSSLPNFSGIFNHLERALDEEISRVRKDMYNDTLNGSTEK (Qki 14-67 C35S/L44A (Mus musculus, UniProt Q9QYS9)) | itself | CD thermal melting |  | 50 µM |  | melting temperature | 37 °C |
| amyloid beta fragment | itself | SDS-PAGE immunoblot |  | tetramers, lipidated apoE4 | baseline: sample without apoE, higher = more tetramer remaining | relative band intensity | 235% |
| PYCARD (Homo sapiens, UniProt Q9ULZ3-2) | itself | real-time NMR |  | 495 µM |  | backward rate constant | 0.005 h |
| CBX5 chromoshadow domain (Homo sapiens) (sequence not shown) | itself | ITC |  | dimerization |  | Kd | 1.1 µM |
| STEP61 (Rattus norvegicus) | itself | non-reducing SDS-PAGE and immunoblot |  | hippocampus, N-acetyl cysteine | baseline: untreated aged control, higher = more dimer | dimer band | 58.9% |
| lacI full length, tetramer (Escherichia coli, UniProt P03023) | itself | lacZ reporter |  |  | baseline: between strains, higher = stronger repression | repression | < 10 fold |
| COL15A1 trimerization domain (Homo sapiens) | itself | GuHCl equilibrium transitions |  | extrapolated to water, calculated |  | trimer midpoint concentration | 119 pM |
| proNGF residues -121 to 118 three furin sites to alanine (Mus musculus) | itself | SEC-MALS |  |  |  | subunits per oligomer | 2 |
| CTCF (Homo sapiens, UniProt P49711) | T2, itself | pull-down | nuclear extract | together with: RNase A | baseline: untreated, higher = greater loss | co-precipitation decrease | 50% |
| ferritin apo, 15% H 85% L (Equus caballus, UniProt Q8MIP0) | itself | AUC |  |  |  | percent dimer | 3% |
| B3 | T3, itself | fluorescence polarisation |  | apparent, self-association |  | Kd | 2.5 µM |
| gerBC fragment (Bacillus subtilis) | itself | analytical ultracentrifugation |  | monomer-dimer self-association |  | Kd | 2200 µM |
| Sh C96S/C301S/C308S/C505T/I470V (Drosophila melanogaster) | itself | paired-pulse electrophysiology |  | I470V |  | recovery time from inactivation | 33 ms |
| Pcdh15 EC1-11 (Mus musculus) (sequence not shown) | itself | AUC |  | pH 8.0, 25 °C, NaCl 150 mM, together with: CaCl2 3 mM |  | Kd | 1.8 µM |
| PYCARD (Homo sapiens, UniProt Q9ULZ3) | itself | real-time NMR |  | 697 µM |  | backward rate constant | 0.12 h |
| CRYGS N15D/Q121E/N144D (Homo sapiens) | itself | SEC-MALS |  |  |  | subunits per oligomer | 2 |
| F11R extracellular domain E61A/K63A | itself | atomic force spectroscopy |  | 37 °C |  | koff | 0.14 s⁻¹ |
| TFAM fragment K95A/Y99F/E106A/E112A/R116A, Alexa Fluor label on Cys49 (Homo sapiens) | itself | tethered particle motion |  | DNA compaction |  | RMS of bead motion | 193 nm |
| B4 (ALDH7A1 A129P) | T4, itself | AUC |  | 20 °C |  | Kd | 5 µM |
| CENPA (Homo sapiens, UniProt P49450) | itself | co-IP |  |  | baseline: total CENP-molecule in input, higher = more unbound | unbound fraction | 22.5% |
| STAT5A full length, exon-4 deleted isoform (Homo sapiens) | itself | Stat5 reporter | HEK | 24 h, together with: PRL 1 µg/mL | baseline: one response element, higher = more tetramerization | luciferase activity | 3.5 fold |

Excerpt of the above:
| Substance | partner | assay | system | setting | how to read | quantity | value |
| --- | --- | --- | --- | --- | --- | --- | --- |
| TPDYLMQLMNDKKLMSSLPNFSGIFNHLERALDEEISRVRKDMYNDTLNGSTEK (Qki 14-67 C35S/L44A (Mus musculus, UniProt Q9QYS9)) | itself | CD thermal melting |  | 50 µM |  | melting temperature | 37 °C |
| amyloid beta fragment | itself | SDS-PAGE immunoblot |  | tetramers, lipidated apoE4 | baseline: sample without apoE, higher = more tetramer remaining | relative band intensity | 235% |
| PYCARD (Homo sapiens, UniProt Q9ULZ3-2) | itself | real-time NMR |  | 495 µM |  | backward rate constant | 0.005 h |
| CBX5 chromoshadow domain (Homo sapiens) (sequence not shown) | itself | ITC |  | dimerization |  | Kd | 1.1 µM |
